Measured values from different studies.
Compare with care: the assays were run in different laboratories.
Organism: Staphylococcus aureus

SMILES	assay	system	conditions	MIC
CC[C@H](C)[C@H](NC(=O)[C@H](CC(C)C)NC(=O)[C@@H](NC(=O)[C@H](CCCNC(=N)N)NC(=O)[C@H](CCCNC(=N)N)NC(=O)[C@H](CCCNC(=N)N)NC(=O)[C@@H](N)CCCNC(=N)N)[C@@H](C)CC)C(=O)N[C@@H](CCCCN)C(=O)N[C@@H](CCCCN)C(=O)N[C@H](C(=O)N[C@@H](CC(C)C)C(=O)N[C@@H](CCCCN)C(=O)N[C@@H](CC(C)C)C(=O)N[C@@H](CCCCN)C(=O)N[C@@H](CO)C(=O)N[C@@H](CO)C(=O)N[C@@H](C)C(=O)N[C@@H](Cc1ccc(O)cc1)C(N)=O)C(C)C	broth microdilution		24 h, 37 °C	64 µM
CC[C@H](C)[C@H](NC(=O)[C@H](CCCCN)NC(=O)[C@H](CCCCN)NC(=O)CNC(=O)[C@H](CCCCN)NC(=O)[C@H](CC(C)C)NC(=O)[C@H](CCCCN)NC(=O)[C@H](CCCNC(=N)N)NC(=O)[C@@H](NC(=O)[C@H](CC(C)C)NC(=O)[C@H](CCCNC(=N)N)NC(=O)[C@@H](N)CCCNC(=N)N)[C@@H](C)CC)C(=O)N[C@@H](Cc1ccc(O)cc1)C(=O)N[C@@H](CC(C)C)C(=O)N[C@@H](Cc1ccc(O)cc1)C(=O)N[C@@H](Cc1ccccc1)C(=O)N[C@@H](CCCCN)C(=O)N[C@@H](CC(C)C)C(=O)N[C@@H](CCC(N)=O)C(=O)N[C@@H](CC(C)C)C(=O)N[C@@H](CC(C)C)C(=O)N[C@@H](CCCCN)C(=O)N[C@@H](CCCCN)C(N)=O		KCTC 1621, Mueller-Hinton broth	added: 150 mM NaCl	16 µM
CC[C@H](C)[C@H](NC(=O)[C@H](CCCCN)NC(=O)[C@@H]1CCCN1C(=O)[C@H](CCCNC(=N)N)NC(=O)[C@H](Cc1ccc(O)cc1)NC(=O)[C@H](CCCNC(=N)N)NC(=O)[C@H](CCCNC(=N)N)NC(=O)[C@@H](NC(=O)[C@H](CCCNC(=N)N)NC(=O)[C@H](CCCNC(=N)N)NC(=O)[C@H](CC(C)C)NC(=O)[C@H](Cc1ccccc1)NC(=O)[C@H](CCCNC(=N)N)NC(=O)[C@H](CO)NC(=O)[C@H](Cc1ccccc1)NC(=O)[C@@H](N)CCCNC(=N)N)C(C)C)C(=O)N[C@@H](CO)C(=O)N[C@@H](Cc1ccccc1)C(=O)N[C@@H](CC(N)=O)C(=O)N[C@@H](CC(C)C)C(=O)N[C@@H](CCC(=O)O)C(=O)N1CCC[C@H]1C(=O)N[C@@H](Cc1ccccc1)C(=O)N[C@@H](Cc1ccccc1)C(=O)N[C@@H](CCCCN)C(=O)N[C@@H](Cc1ccccc1)C(=O)O	broth microdilution	ATCC 25923, Mueller-Hinton broth	16 to 20 h, 37 °C	1.27 µM
CC[C@H](C)[C@H](NC(=O)[C@H](Cc1c[nH]c2ccccc12)NC(=O)[C@@H](NC(=O)[C@@H](NC(=O)[C@@H](NC(=O)[C@H](CCCNC(=N)N)NC(=O)[C@@H](N)CCCNC(=N)N)[C@@H](C)CC)[C@@H](C)O)[C@@H](C)CC)C(=O)N[C@H](C(=O)N[C@H](C(=O)N[C@@H](CCCNC(=N)N)C(=O)N[C@@H](CCCNC(=N)N)C(N)=O)[C@@H](C)CC)[C@@H](C)O	broth microdilution	29213, Mueller-Hinton broth	24 h, 37 °C, lowest concentration, 95% inhibition, added: BSA	128 µM
Cn1c(=O)ccc2ccc(F)c(CCNC[C@H]3CN(c4ccc5c(n4)NC(=O)CO5)C(=O)O3)c21		ATCC 29213		8 ng/mL
CC[C@H](C)[C@H](NC(=O)[C@H](CC(C)C)NC(=O)[C@H](CCCNC(=N)N)NC(=O)[C@@H](N)CCCNC(=N)N)C(=O)N[C@@H](CCCNC(=N)N)C(=O)N[C@H](C(=O)N[C@@H](CCCCN)C(=O)N[C@H](C(=O)NCC(=O)N1CCC[C@H]1C(=O)N[C@H](C(=O)N[C@H](C(=O)N[C@@H](Cc1ccc(O)cc1)C(=O)N[C@@H](CCCCN)C(=O)N[C@@H](Cc1ccc(O)cc1)C(=O)N[C@@H](Cc1ccccc1)C(=O)N[C@@H](CCCCN)C(=O)N[C@@H](CCCCN)C(=O)N[C@@H](CCC(N)=O)C(=O)N[C@@H](CC(C)C)C(=O)N[C@@H](CC(C)C)C(=O)N[C@@H](CCCCN)C(=O)N[C@@H](CCCCN)C(N)=O)[C@@H](C)CC)[C@@H](C)CC)[C@@H](C)O)[C@@H](C)O		CCARM 3090, methicillin-resistant, Mueller-Hinton broth	24 h	> 128 µM
CC[C@H](C)[C@H](N)C(=O)N[C@@H](CC(C)C)C(=O)NCC(=O)N[C@@H](CCCNC(=N)N)C(=O)N[C@H](C(=O)N[C@@H](Cc1c[nH]c2ccccc12)C(=O)N[C@@H](CCCCN)C(=O)NCC(=O)N[C@H](C(=O)N[C@@H](CCCCN)C(=O)N[C@@H](CC(=O)O)C(=O)N[C@H](C(=O)N[C@@H](CC(C)C)C(N)=O)[C@@H](C)CC)[C@@H](C)CC)[C@@H](C)CC	broth microdilution	ATCC 25923, Mueller-Hinton broth	16 h, 37 °C	6.25 µM
CC[C@H](C)[C@H](NC(=O)[C@H](CC(C)C)NC(=O)[C@H](CCCNC(=N)N)NC(=O)[C@@H](N)CCCNC(=N)N)C(=O)N[C@@H](CCCNC(=N)N)C(=O)N[C@H](C(=O)N[C@@H](CC(C)C)C(=O)N[C@H](C(=O)NCC(=O)N1CCC[C@H]1C(=O)N[C@H](C(=O)N[C@H](C(=O)N[C@@H](Cc1ccc(O)cc1)C(=O)N[C@@H](CC(C)C)C(=O)N[C@@H](Cc1ccc(O)cc1)C(=O)N[C@@H](Cc1ccccc1)C(=O)N[C@@H](CCCCN)C(=O)N[C@@H](CC(C)C)C(=O)N[C@@H](CCC(N)=O)C(=O)N[C@@H](CC(C)C)C(=O)N[C@@H](CC(C)C)C(=O)N[C@@H](CCCCN)C(=O)N[C@@H](CCCCN)C(N)=O)[C@@H](C)CC)[C@@H](C)CC)[C@@H](C)O)[C@@H](C)O		CCARM 3089, methicillin-resistant, Mueller-Hinton broth	24 h	> 128 µM
CC[C@H](C)[C@H](NC(=O)[C@H](Cc1ccccc1)NC(=O)[C@@H](NC(=O)[C@H](Cc1c[nH]c2ccccc12)NC(=O)[C@@H]1CCCN1C(=O)[C@@H](NC(=O)[C@H](C)N)[C@@H](C)CC)[C@@H](C)CC)C(=O)N[C@@H](Cc1ccccc1)C(=O)N[C@@H](CCCNC(=N)N)C(=O)N[C@@H](CC(C)C)C(=O)N[C@@H](CC(C)C)C(=O)N[C@@H](CCCNC(=N)N)C(=O)N[C@@H](CCCCN)C(=O)NCC(N)=O	broth microdilution	ATCC 35556	18 h, 37 °C	1.88 µM
CC[C@H](C)[C@H](NC(=O)[C@H](CC(C)C)NC(=O)[C@@H](NC(=O)[C@H](Cc1ccc(O)cc1)NC(=O)[C@H](CO)NC(=O)CNC(=O)[C@H](CCCNC(=N)N)NC(=O)[C@H](CCCNC(=N)N)NC(=O)[C@H](CCCNC(=N)N)NC(=O)[C@@H]1CCCN1C(=O)[C@H](CCCCN)NC(=O)[C@H](Cc1c[nH]c2ccccc12)NC(=O)[C@@H](NC(=O)[C@H](Cc1c[nH]c2ccccc12)NC(=O)[C@H](CCCCN)NC(=O)[C@H](CCCNC(=N)N)NC(=O)[C@H](CCCNC(=N)N)NC(=O)[C@@H]1CCCN1C(=O)[C@H](CO)NC(=O)[C@H](CCCNC(=N)N)NC(=O)[C@H](CO)NC(=O)[C@H](CCCNC(=N)N)NC(=O)[C@@H](N)CCCNC(=N)N)[C@@H](C)O)[C@@H](C)O)C(=O)N[C@@H](CO)C(=O)N[C@@H](CCC(N)=O)C(=O)NCC(=O)NCC(=O)N[C@@H](CC(N)=O)C(=O)O		CMCC 26003	highest concentration 50 µM	21.8 µM
Cc1cc(Nc2cc(N3CCN(C)CC3)nc(Sc3ccc(NC(=O)C4CC4)cc3)n2)n[nH]1		NCTC 8325		> 30 µM
CC(C)C[C@H](NC(=O)[C@H](C)NC(=O)[C@@H](NC(=O)[C@H](CCCNC(=N)N)NC(=O)[C@H](CC(C)C)NC(=O)[C@H](Cc1c[nH]c2ccccc12)NC(=O)[C@@H]1CCCN1C(=O)[C@@H](N)CCCCN)C(C)C)C(=O)N[C@@H](CS)C(=O)N1CCC[C@H]1C(=O)NCC(=O)O	broth microdilution	methicillin-resistant L6		32 µM
CN[C@H](CC(C)C)C(=O)N[C@H]1C(=O)N[C@@H](CC(N)=O)C(=O)N[C@H]2C(=O)N[C@H]3C(=O)N[C@H](C(=O)N[C@H](C(=O)O)c4cc(O)cc(O)c4-c4cc3ccc4O)[C@H](O)c3ccc(c(Cl)c3)Oc3cc2cc(c3O[C@@H]2O[C@H](CO)[C@@H](O)[C@H](O)[C@H]2O[C@H]2C[C@](C)(N)[C@H](O)[C@H](C)O2)Oc2ccc(cc2Cl)[C@H]1O		NRS402 VISA		5 µM

Excerpt of the above:
SMILES	assay	system	conditions	MIC
CC[C@H](C)[C@H](NC(=O)[C@H](CC(C)C)NC(=O)[C@H](CCCNC(=N)N)NC(=O)[C@@H](N)CCCNC(=N)N)C(=O)N[C@@H](CCCNC(=N)N)C(=O)N[C@H](C(=O)N[C@@H](CC(C)C)C(=O)N[C@H](C(=O)NCC(=O)N1CCC[C@H]1C(=O)N[C@H](C(=O)N[C@H](C(=O)N[C@@H](Cc1ccc(O)cc1)C(=O)N[C@@H](CC(C)C)C(=O)N[C@@H](Cc1ccc(O)cc1)C(=O)N[C@@H](Cc1ccccc1)C(=O)N[C@@H](CCCCN)C(=O)N[C@@H](CC(C)C)C(=O)N[C@@H](CCC(N)=O)C(=O)N[C@@H](CC(C)C)C(=O)N[C@@H](CC(C)C)C(=O)N[C@@H](CCCCN)C(=O)N[C@@H](CCCCN)C(N)=O)[C@@H](C)CC)[C@@H](C)CC)[C@@H](C)O)[C@@H](C)O		CCARM 3089, methicillin-resistant, Mueller-Hinton broth	24 h	> 128 µM
